Assay results gathered from unrelated publications.
Numbers after ± are the reported error. In brackets after ≈: the same amount, converted by molar mass.
UniProt P49840, sequence (whole entry, looked up): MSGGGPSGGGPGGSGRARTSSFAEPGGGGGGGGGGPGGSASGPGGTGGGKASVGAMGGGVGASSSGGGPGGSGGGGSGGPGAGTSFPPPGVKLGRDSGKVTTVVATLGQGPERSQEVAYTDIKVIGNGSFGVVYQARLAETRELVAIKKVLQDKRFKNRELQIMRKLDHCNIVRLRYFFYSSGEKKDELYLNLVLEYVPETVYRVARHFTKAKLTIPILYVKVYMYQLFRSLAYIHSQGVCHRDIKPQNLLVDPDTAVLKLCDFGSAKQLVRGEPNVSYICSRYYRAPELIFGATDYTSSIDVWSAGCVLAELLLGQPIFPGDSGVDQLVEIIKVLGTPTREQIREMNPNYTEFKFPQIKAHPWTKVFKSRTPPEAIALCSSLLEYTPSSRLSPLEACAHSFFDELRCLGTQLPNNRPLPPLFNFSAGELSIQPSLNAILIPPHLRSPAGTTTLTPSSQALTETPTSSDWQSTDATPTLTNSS
UniProt Q12866, sequence (whole entry, looked up): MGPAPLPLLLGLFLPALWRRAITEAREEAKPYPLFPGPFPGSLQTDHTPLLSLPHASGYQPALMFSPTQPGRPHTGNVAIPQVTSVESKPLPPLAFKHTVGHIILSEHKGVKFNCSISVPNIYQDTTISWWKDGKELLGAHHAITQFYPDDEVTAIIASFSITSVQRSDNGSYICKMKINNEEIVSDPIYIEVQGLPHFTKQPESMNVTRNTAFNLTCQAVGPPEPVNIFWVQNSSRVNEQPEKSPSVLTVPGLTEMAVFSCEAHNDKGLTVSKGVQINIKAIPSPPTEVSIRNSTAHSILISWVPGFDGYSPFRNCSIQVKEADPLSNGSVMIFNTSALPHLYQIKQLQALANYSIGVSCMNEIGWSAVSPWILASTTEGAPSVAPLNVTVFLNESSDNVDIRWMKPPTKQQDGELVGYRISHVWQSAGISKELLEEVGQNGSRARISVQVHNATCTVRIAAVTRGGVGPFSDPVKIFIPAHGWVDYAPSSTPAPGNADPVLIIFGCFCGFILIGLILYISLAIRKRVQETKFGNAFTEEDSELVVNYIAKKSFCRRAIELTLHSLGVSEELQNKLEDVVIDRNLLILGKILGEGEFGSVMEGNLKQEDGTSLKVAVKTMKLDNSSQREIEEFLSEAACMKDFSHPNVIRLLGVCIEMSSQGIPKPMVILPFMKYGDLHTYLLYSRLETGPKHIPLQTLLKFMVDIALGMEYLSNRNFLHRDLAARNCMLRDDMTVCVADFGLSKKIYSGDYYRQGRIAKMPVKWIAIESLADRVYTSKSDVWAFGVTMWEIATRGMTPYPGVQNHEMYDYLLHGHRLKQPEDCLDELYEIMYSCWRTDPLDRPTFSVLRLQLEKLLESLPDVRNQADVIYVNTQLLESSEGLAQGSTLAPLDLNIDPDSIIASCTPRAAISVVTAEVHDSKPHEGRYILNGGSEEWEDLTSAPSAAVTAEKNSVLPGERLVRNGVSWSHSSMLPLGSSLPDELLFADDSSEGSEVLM
UniProt P42680, sequence (whole entry, looked up): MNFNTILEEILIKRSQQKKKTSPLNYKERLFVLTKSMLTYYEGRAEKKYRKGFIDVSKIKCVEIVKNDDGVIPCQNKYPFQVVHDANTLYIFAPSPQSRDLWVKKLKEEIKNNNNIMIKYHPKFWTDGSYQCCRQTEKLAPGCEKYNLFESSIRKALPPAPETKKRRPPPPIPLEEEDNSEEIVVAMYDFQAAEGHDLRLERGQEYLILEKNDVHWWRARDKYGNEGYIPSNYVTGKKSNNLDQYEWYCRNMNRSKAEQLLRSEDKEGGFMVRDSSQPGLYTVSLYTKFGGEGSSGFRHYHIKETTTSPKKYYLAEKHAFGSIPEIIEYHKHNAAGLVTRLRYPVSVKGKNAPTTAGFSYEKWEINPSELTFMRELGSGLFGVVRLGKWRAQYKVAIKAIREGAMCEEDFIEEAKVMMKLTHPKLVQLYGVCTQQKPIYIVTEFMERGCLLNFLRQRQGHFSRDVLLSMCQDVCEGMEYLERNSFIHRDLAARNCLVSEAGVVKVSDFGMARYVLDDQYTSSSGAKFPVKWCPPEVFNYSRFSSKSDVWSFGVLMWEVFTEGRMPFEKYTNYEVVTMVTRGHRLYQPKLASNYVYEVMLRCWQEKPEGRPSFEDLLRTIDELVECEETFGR
UniProt Q14012, sequence (whole entry, looked up): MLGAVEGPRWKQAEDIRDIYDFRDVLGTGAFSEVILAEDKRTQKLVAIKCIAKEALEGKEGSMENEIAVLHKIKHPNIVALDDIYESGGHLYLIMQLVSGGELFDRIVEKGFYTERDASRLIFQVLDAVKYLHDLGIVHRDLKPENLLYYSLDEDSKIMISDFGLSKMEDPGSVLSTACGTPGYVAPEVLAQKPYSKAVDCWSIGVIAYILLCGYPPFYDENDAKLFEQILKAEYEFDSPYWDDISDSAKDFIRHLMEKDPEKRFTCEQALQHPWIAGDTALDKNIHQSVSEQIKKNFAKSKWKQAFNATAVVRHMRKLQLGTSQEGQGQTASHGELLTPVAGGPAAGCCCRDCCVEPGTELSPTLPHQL
UniProt P51589, sequence (whole entry, looked up): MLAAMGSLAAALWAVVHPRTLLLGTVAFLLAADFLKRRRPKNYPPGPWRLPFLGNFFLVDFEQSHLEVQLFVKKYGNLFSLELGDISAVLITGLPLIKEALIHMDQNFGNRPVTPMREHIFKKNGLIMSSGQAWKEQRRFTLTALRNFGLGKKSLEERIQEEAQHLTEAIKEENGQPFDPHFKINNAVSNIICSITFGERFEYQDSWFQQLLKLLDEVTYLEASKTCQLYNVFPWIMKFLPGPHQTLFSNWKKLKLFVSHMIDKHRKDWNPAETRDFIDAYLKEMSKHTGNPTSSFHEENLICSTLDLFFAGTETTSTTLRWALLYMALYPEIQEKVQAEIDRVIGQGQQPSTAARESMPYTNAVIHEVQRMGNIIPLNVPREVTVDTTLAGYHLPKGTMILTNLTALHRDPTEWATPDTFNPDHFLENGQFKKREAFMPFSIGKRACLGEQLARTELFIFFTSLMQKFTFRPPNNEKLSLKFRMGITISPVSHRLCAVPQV

COc1ccccc1-c1n[nH]c2nc(N[C@H]3CC[C@H](NS(=O)(=O)CC(C)C)CC3)ncc12
relative abundance (bead binding, competition bead pull-down, refers to: LMJF.21.0810; Leishmania donovani extract; 10 µM; baseline: vehicle): 1.04

Nc1nc(Nc2ccc(Cl)cc2)nn1S(=O)(=O)c1ccc2ccccc2c1
CC50 (BHK-21): 7.9 µM

Cc1cc(C)c2nc3c(Br)cc(Br)c(O)c3nc2c1
logP (UV-vis; octanol/water): 1.2 ± 0.23

CC[C@H](C)[C@H](NC(=O)[C@H](CO)NC(=O)[C@H](Cc1ccc(O)cc1)NC(=O)[C@H](Cc1ccc(O)cc1)NC(=O)[C@H](CC(N)=O)NC(=O)CNC(=O)[C@H](CO)NC(=O)[C@H](Cc1ccc(O)cc1)NC(=O)[C@H](CO)NC(=O)[C@H](CO)NC(=O)[C@H](CC(N)=O)NC(=O)COCCOCCNC(=O)CN1CCN(CC(=O)O)CCN(CC(=O)O)CCN(CC(=O)O)CC1)C(=O)N[C@@H](CC(C)C)C(N)=O [copper-64 labelled]
tissue uptake (dynamic PET; KPC mouse Ptf1a-CreER tdTomato, pancreas; intravenous, 4.6 MBq/mouse, 9.5 min, 84 d after tamoxifen): 12.8 %ID/mL

CC(C)(C)C(=O)OCOP(=O)(OCOC(=O)C(C)(C)C)C1CCCN(O)C1=O (stereo not shown)
TGI (SR): 7.87 µM

Cc1nc2cccc(OCC(C)(C)C(=O)NC(C)C)c2c(N)c1C(=O)[O-].[Na+]
revertant colonies per plate (Salmonella typhimurium; TA100; 5.0 mg per plate, without S9, plate incorporation): 147 ± 7

CC[C@H](C)[C@H](NC(=O)[C@H](CCCCN)NC(=O)[C@H](CCCCN)NC(=O)[C@H](Cc1ccccc1)NC(=O)[C@H](Cc1ccccc1)NC(=O)[C@H](CCCCN)NC(=O)[C@H](CCCCN)NC(=O)[C@H](Cc1ccccc1)NC(=O)[C@H](CCCNC(=N)N)NC(=O)[C@@H](N)CCCCN)C(=O)N[C@@H](CCCCN)C(=O)N[C@@H](CCCCN)C(=O)N[C@@H](CO)C(=O)N[C@H](C(=O)N[C@@H](CCCCN)C(=O)N[C@@H](CCCCN)C(=O)N[C@@H](CCCNC(=N)N)C(=O)N[C@H](C(=O)N[C@@H](CCCCN)C(=O)N[C@@H](CCCCN)C(=O)N[C@@H](CC(C)C)C(=O)N[C@@H](Cc1ccccc1)C(=O)N[C@@H](CCCCN)C(=O)N[C@@H](CCCCN)C(=O)N1CCC[C@H]1C(=O)N[C@@H](CCCNC(=N)N)C(=O)N[C@H](C(=O)N[C@H](C(=O)N1CCC[C@H]1C(=O)N[C@H](C(=O)N[C@@H](CO)C(=O)N[C@H](C(=O)N1CCC[C@H]1C(=O)N[C@@H](Cc1ccccc1)C(=O)O)[C@@H](C)CC)[C@@H](C)CC)[C@@H](C)CC)C(C)C)C(C)C)C(C)C
MIC (Pseudomonas aeruginosa; P1, mouse serum; 2 h, 37 °C): 16 µg/mL (≈ 3.79 µM)

CCN(CC)CCOc1ccc(-c2nnn(Cc3ccc(OC)cc3)c2N)cc1
inhibition (Cytochrome P450 2B6 (CYP2B6, Homo sapiens, UniProt P20813); CYP phenotyping; concentration not given): -11.9%

COc1ccccc1-c1n[nH]c2nc(NC3CCN(C(=O)Cc4ccc(F)cc4F)CC3)ncc12
relative abundance (bead binding, competition bead pull-down, refers to: LINJ.03.0380; Leishmania donovani extract; 10 µM; baseline: vehicle): 1.11

O=C(NS(=O)(=O)c1cccs1)c1cc2ccccc2n1Cc1ccc(Br)c2ccccc12
body weight (KM mouse, chronic hyperuricaemia model; dose not given, day 2): 26.5 g

CC(C)[C@H]1NC(=O)C[C@H]2/C=C/CCSSC[C@@H](NC1=O)C(=O)N[C@H](Cc1cccc3ccccc13)C(=O)NCC(=O)O2
inhibition (MERTK (Homo sapiens, UniProt Q12866); enzyme activity, inhibitor; 10 µM): 11.1%

CN(C)[C@H]1C[C@@]23CC[C@@]4(O2)C(=CC[C@]2(C)[C@@H](c5ccc6ccncc6c5)CC[C@H]24)C=C3[C@@H](O)[C@@H]1O
inhibition (CAMK1 (Homo sapiens, UniProt Q14012); ATP probe labelling, inhibitor, KiNativ profiling; 1 µM): -4.2%

CC(=O)NCCCC[C@@H]1NC(=O)[C@H](Cc2c[nH]c3c(C)cccc23)NC(=O)[C@H]([C@@H](C)O)NC(=O)[C@H](CC(N)=O)NC(=O)[C@@H](NC(C)=O)C(C)(C)SSC(C)(C)[C@@H](C(=O)N[C@@H](Cc2ccc(OCCN)cc2)C(=O)N[C@@H](Cc2ccc3ccccc3c2)C(=O)NC2(C(=O)N[C@@H](CCC(=O)O)C(=O)N[C@@H](CC(N)=O)C(=O)N[C@@H](Cc3cccnc3)C(=O)N(C)CC(N)=O)CCOCC2)NC1=O
fraction unbound (human alpha-1-acid glycoprotein 0.14%; equilibrium dialysis; 1 µM): 91.5 ± 1.7%

CS(C)(=O)=Nc1ccc(-c2ccc(-c3nc4cc(O[C@@H]5CO[C@H]6[C@@H]5OC[C@H]6O)[nH]c4cc3F)cc2)cc1
inhibition (GSK3A (Homo sapiens, UniProt P49840); enzyme activity, inhibitor; 10 µM): 5%

Cc1nc(=O)c2cc(CN(C)c3ccc(C(=O)Nc4n[nH]c5ccccc45)s3)ccc2[nH]1
uptake from medium (Mycobacterium tuberculosis; H37Rv; 10 µM, 24 h): 49.6 ± 4%

O=C1NC(=O)c2c1c1cc(F)c[n+]3c1c1c2c2cc(O)ccc2[n]1[Ru-4]312([N]=C=S)[S+]3CC[S+]1CC[S+]2CC3 (stereo not shown)
remaining activity (TEC (Homo sapiens, UniProt P42680); enzyme activity; 100 nM, human enzyme, added: 10 µM ATP; baseline: untreated): 66%

O=C(O)CCCOc1ccc(O)cc1-c1cc(-c2ccccc2C(F)(F)F)n(-c2ccccc2)n1
mutagenicity (Salmonella typhimurium; Ames test; TA98, TA100, TA1535, TA1537; 78.1 to 5000 µg/plate, without S9): negative

COc1cc2c(cc1NC(=O)c1cncn1C)C[C@H]1[C@H]3CCCC[C@@]23CCN1C
unbound fraction (equilibrium dialysis; human plasma; 5 µM, 6 h): 0.735

CC1(F)CN(C(=O)Cn2c(=O)c(C(=O)NCc3ccc(Cl)cc3)cc3nc(N4CCN(CCN)C4=O)cnc32)C1
selectivity index (human cytomegalovirus; plaque reduction; AD169 US3-6-EGFP; baseline: CC50 over EC50): > 189

COc1ccc(-n2cc(C(=O)N3C[C@]4(OC(=O)c5ccccc5NC(C)=O)CC[C@H](OC)[C@@]56[C@@H]4C[C@@H]([C@@H]35)[C@@]3(O)C[C@H](OC)[C@H]4C[C@@H]6[C@]3(O)[C@H]4OC)nn2)cc1
AUC(0-t) (rat Sprague-Dawley, plasma; intravenous, 2 mg/kg): 52.1 ng·h/mL

Cc1ccccc1S(=O)(=O)N1CCCC2(C1)Nc1cccnc1N=C2NC1CCCC1 (stereo not shown)
CC50 (HEK293; 72 (unit not given)): 38.6 µM

CC[C@H](C)[C@H](NC(=O)[C@H](CCCCN)NC(=O)CNC(=O)[C@H](CC(C)C)NC(=O)[C@H](Cc1ccccc1)NC(=O)[C@H](CCCCN)NC(=O)[C@H](CO)NC(=O)[C@H](Cc1ccccc1)NC(=O)[C@H](Cc1c[nH]c2ccccc12)NC(=O)[C@H](CCC(N)=O)NC(=O)[C@@H](NC(=O)[C@H](Cc1ccccc1)NC(=O)CCCCCNC(=O)CN1CCN(CC(=O)O)CCN(CC(=O)O)CCN(CC(=O)O)CC1)C(C)C)C(=O)N[C@@H](CCC(=O)O)C(=O)N1CCC[C@H]1C(=O)N[C@@H](CC(=O)O)C(=O)N[C@H](C(=O)N[C@@H](CO)C(=O)N[C@@H](CCC(N)=O)C(=O)N[C@H](C(=O)N[C@@H](CCC(N)=O)C(=O)N[C@@H](CC(=O)O)C(=O)N1CCC[C@H]1C(=O)N[C@@H](CC(N)=O)C(=O)N[C@@H](CC(=O)O)C(=O)N[C@@H](CCC(N)=O)C(=O)N[C@@H](Cc1ccc(O)cc1)C(=O)N[C@@H](CCC(=O)O)C(=O)N1CCC[C@H]1C(=O)N[C@@H](Cc1ccccc1)C(=O)O)C(C)C)C(C)C [copper-64 labelled]
tissue uptake (BALB/c mice, male, CT26 tumour-bearing, muscle; 2 h, vehicle-treated): 0.39 ± 0.1 %ID/g

Cc1cc(-c2ccc3ccccc3c2)nnc1NCCN1CCN(C)CC1
remaining compound (Cytochrome P450 2J2 (CYP2J2, Homo sapiens, UniProt P51589); substrate; recombinant enzyme; 1000 nM, 30 min): 93.8%

O=C1NC2(CC2)COc2ncc(F)cc2[C@H]2COCCN2c2ccn3ncc1c3n2
revertant colonies (Salmonella typhimurium; Ames test; TA1535; 500 µg/plate, 48 h, added: rat liver S9): 7 ± 4 revertants/plate

COc1ccc2c3c1O[C@H]1[C@H](O)C=C[C@H]4[C@@H](C2)N(C)CC[C@@]341
logP (1 h): 1.38
